Measurements of several laboratories.
Numbered parts are unrelated; each lists some results of a single study.

Series 1 — technique: protein binding microarray; molecule type: double-stranded DNA, one strand shown; matrix: in vitro; tested at: not given; baseline: not given; reading: higher = stronger binding
Target: Histone acetyltransferase KAT6A, winged helix 2, GST fusion (KAT6A, Homo sapiens, UniProt Q92794, residues 85-181)
Setting: 8-mer, flanks averaged, mean of 2 arrays, mostly near background
Target sequence (chain): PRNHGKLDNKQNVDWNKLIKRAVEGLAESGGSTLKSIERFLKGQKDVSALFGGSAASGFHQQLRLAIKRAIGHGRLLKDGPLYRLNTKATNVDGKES
Oligonucleotide | E-score
ACTTTGCA | 0.121
CGTCGGAG | 0.109
ACTGGGCC | 0.129
ACGCTACC | -0.154
TGCTGCAA | 0.188
AATAATAT | 0.128
AAAGGGTG | -0.041
CGCAAAGC | 0.212
AACAACTG | -0.0822
GACGTGAC | -0.126
AACTAGCG | -0.061
CCACTAAA | 0.0624
GTCTGTTA | -0.0845
CCATCAAA | 0.00757
ACCTCCAT | -0.178
GAAATTAC | -0.0923
CTTCACAC | -0.0121
TATGTGAA | -0.0428

Series 2 — technique: protein-binding microarray; molecule type: double-stranded DNA, one strand shown; matrix: in vitro; tested at: 2200 nM top; setting: 60-bp whole probe; added: salmon DNA 0.4 mg/ml; baseline: random background probes; reading: higher = stronger binding; constant ends, left off below: GCCTAGCAC … GTCTTGATTCGCTTGACGCTGCTG
Target: Interferon regulatory factor 7, full length, phosphomimetic (IRF7, Homo sapiens, UniProt Q92985, residues 1-503, S471D/S472D/S475D/S476D/S477D/S483D/S484D/S487D)
UniProt Q92985, sequence (whole entry, unmodified, looked up): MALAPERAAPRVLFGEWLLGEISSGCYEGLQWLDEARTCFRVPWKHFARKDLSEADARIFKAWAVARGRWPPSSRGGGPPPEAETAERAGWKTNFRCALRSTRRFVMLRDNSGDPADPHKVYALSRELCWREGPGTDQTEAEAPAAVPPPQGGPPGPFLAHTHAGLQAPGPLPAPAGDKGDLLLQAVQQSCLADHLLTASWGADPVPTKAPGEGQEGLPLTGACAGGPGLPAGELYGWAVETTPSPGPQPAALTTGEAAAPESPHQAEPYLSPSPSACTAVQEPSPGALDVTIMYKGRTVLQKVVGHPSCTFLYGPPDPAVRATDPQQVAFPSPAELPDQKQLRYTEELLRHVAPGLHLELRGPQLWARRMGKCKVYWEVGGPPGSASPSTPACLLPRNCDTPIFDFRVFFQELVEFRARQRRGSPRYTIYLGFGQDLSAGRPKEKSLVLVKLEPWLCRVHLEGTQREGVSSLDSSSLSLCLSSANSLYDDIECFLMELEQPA
Oligonucleotide | fitted relative affinity [z-score]
TTAGGTATCCTTTTCCATTAGTGCTAG | 1.54
GACGGTCTCCTACTGCTGTCGTGCTAG | 0.914
GACGATTTCAGTTCCGAAACGTGCTAG | 1.94
TTAGGACTGCTTTACCTTTAGTGCTAG | 0.635
GACGAATTCAGTTTCGAGACGTGCTAG | 3.81
TTCGGTTTCGGACTGGGTTAGTGCTAG | 5.97
CTGTACTTGAATTCTGCAAAGTGCTAG | 0.668
TTAGGTCTCGGACAGGGTTAGTGCTAG | -0.403
TTAGGACTGGGGACTGGATTAGTGCTA | -0.712
CAGCACAGCTGACTACAAGCGTGCTAG | -0.138
TCATTCTTGCATCTGGGACTGTGCTAG | 1.36
TGGTCTTTCTGTTTTCTCCAGTGCTAG | 4.66
GACGGACTGGGTCTCGGGTCGTGCTAG | -0.537
GACGATTTCGGGACTGGAGATGTGCTA | 1.37
GACGGACTGGGGTATCGGGAGGTGCTA | -0.596
CCTTATCCCTAATCTCAGCCTGTGCTA | 1.5
GGCGGACTGGGGACTGGGGACGTGCTA | -1.15
TCATATACACTTATGACACTGTGCTAG | 1.08
TTAGGACTGGGTTTCGGTGAGTGCTAG | 0.661
TTAGGTATCGGTTTCGGTTTGTGCTAG | 13
GACGGTTTCCTCATCCTGACGTGCTAG | 2.4

Series 3 — technique: RNA Bind-n-Seq; molecule type: RNA; matrix: in vitro; tested at: not given; baseline: input RNA pool; reading: higher = stronger binding
Target: RING finger protein unkempt homolog, zinc fingers 1-6, GST-SBP tag (UNK, Homo sapiens, UniProt Q9C0B0, residues 30-357)
Setting: RNA with constant flanks, human-mouse chimeric sites, ends assumed
Constant ends, left off below: GGGAGUUCUACAGUCCGACGAUC … CAACAGAGGAUUGAGCAUCA
Target sequence (chain): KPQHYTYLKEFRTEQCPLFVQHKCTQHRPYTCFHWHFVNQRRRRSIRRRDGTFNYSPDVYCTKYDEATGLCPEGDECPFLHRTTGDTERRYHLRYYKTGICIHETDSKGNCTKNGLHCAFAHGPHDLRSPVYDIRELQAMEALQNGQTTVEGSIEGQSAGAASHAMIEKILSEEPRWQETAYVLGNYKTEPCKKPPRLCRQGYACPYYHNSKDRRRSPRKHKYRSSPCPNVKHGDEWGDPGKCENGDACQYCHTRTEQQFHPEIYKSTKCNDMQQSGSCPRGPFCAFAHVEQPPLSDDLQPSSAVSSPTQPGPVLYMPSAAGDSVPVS
Oligonucleotide | bound/input enrichment
CUGUGACCACAAGAUCCUACCUGAGUGGCAGCUGAAGUUGACUCCCUCUCCUUGCCUGCCUAGUUUCCCACUGCCCCCCCAUCCCCCAGUGUCGGCUGAGAUGUUGCCUCUGCACGGUUC | 2.11 ratio
GUGCCCUUCUCGCUGCUGCGGAGCCCGAGCUGGGAACCAUUCCGGGACGACUGGUACGCACACAGCCGCCUCUUCGAUCAAGCUUUCGGGGUGCCCCGGUUGCCCGAGGAGUGGUCGCAG | 0.0916 ratio
UGUGCAUAUGAUGCUUGAGAUGGUUUUUGCAAAAGCAGAAAUCGCUGCAAGGUCAUUACAAUAGAUAAAAGUGGUAUUUUAAACCUUUGAAAUAAAUGGAUGUAACUGUACGUUGGUACA | 0.476 ratio
AUCCAGUACUCGAAUCACAAAGAACUAAAGACAGAUAAUACAUUAAACCAACGUGCGCAGGCAGUUCUUCAAGCUGUGACAGCUGUCCAGACAGCAAAUACUCCUCUUAGUGGCACCACA | 0.393 ratio
GCGGCAGAAUCAUGGAGGACAUAAUGCAGCUCCCCAAAGCGCGCGUCAACGCCAGCAUGUUACCACAGUAUAUCGACCGGCCCGUGUGCUUCGUAGGGAAGCUGGAAAAGAUUCAUCCCA | 0.148 ratio
CUUAUGGCUGCAGAAACAGGAAGUGGAAAAACUGGUGCAUUUAGUAUUCCCGUUAUCCAGAUAGUGUAUGAAACUCUGAAAGACCAACAGGAAGGAAAGAAAGGGAAAACAACUAUUAAA | 0.66 ratio
AAAGAACUACUGAGGCAAGGCAGCAAAUUUAGGAGAGACAUUUCAACACUAUUAAUAGAGUUAGGAUUCCAAAUUAAAAAGAAAACUAAAAGAUUGUACAUCAACAAAGCCAAUGUGUGG | 3.65 ratio
CCACCAGGAUCCCAGAAACAUGACCCUUGCUGCCUACAAAGAGAAGAUGAAGGAACUCCCGCUGGUGUCCUUGUUCUGCUCCUGCUUCCUGGCCGAUCCCCUGAAUAAGUCGUCCUACAA | 0.312 ratio
GAGUCGAGCAAACUUGAAACAAUUCGUUUUACAAAAACCUCAGUGUUCACUUGCUUGGCGAUAGCAUUGGGGUUUUAUAGGUUCUGGAAGGAGAACUGACGAUGAUGUCCUGCUGUGUGC | 0.135 ratio
AAAGAACUACUGAGGCAAGGCAGCAAAUUUAGGAGAGACAUUUCAACAAUAUUGAUAGAGUUAGGAUUCCAAAUUAAAAAGAAAACUAAAAGAUUGUACAUCAACAAAGCCAAUAUCUGG | 7.08 ratio
ACCAUUUUCGCGGUUCAGGCUUUGUGUGUAGUUCACUUACGGUAUUAAAUUAUUAUUCUGCUUAGCUUAAAGUAAGGAUAAUUGCAUUUAAAGAGGUUACUGAAUGUUACUCUGAAACUU | 0.299 ratio

Series 4 — technique: universal PBM; molecule type: double-stranded DNA, one strand shown; matrix: in vitro; tested at: 600 nM; reading: higher = stronger binding
Target: Sal-like protein 4, full length isoform A (SALL4, Homo sapiens, UniProt Q9UJQ4, residues 1-1053)
UniProt Q9UJQ4, sequence (whole entry, looked up): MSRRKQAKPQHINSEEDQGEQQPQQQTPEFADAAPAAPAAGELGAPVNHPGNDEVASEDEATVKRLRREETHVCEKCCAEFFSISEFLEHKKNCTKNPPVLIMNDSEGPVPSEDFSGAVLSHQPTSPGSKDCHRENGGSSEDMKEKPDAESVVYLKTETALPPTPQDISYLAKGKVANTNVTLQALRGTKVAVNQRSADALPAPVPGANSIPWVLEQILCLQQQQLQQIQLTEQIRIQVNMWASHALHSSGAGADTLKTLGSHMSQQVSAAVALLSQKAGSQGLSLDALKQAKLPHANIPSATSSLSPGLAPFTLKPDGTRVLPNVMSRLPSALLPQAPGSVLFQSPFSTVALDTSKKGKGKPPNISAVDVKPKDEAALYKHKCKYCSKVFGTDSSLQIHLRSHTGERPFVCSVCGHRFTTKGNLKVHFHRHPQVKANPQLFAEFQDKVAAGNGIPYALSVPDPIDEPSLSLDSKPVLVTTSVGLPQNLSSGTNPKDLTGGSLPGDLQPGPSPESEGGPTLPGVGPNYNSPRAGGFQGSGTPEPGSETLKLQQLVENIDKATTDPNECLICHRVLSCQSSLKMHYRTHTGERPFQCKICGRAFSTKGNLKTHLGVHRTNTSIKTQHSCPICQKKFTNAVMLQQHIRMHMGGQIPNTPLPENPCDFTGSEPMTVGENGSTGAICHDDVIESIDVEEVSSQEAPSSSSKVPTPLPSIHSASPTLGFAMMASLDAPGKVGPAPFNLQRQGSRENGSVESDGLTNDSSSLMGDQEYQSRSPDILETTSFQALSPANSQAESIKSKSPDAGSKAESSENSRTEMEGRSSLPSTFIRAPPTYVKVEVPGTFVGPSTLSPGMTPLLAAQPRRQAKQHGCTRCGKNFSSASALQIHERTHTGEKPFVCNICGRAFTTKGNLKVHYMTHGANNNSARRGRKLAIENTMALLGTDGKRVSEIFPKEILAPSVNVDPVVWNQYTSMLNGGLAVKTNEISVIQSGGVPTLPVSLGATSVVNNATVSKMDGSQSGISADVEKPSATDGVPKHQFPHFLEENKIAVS
Setting: 8-mer, flanks averaged, mean of replicates
Oligonucleotide | E-score
CTCTATCA | 0.0697
GCTCAACC | -0.196
ATGTGGAG | 0.0655
ACGGTTTC | -0.237
ACACGCAT | 0.0925
CAAACCGG | -0.162
CATACCAA | 0.103
GCCATGCC | -0.164
AGCCGTTC | -0.336
GAAATGAC | 0.232
CGAGCTAG | -0.0491
CAGTGTGG | -0.0751
GAACCATA | 0.111
AGATGAAG | 0.0668
GGCGCGAA | -0.152
CTTCAGTA | 0.114

Series 5 — technique: RNA Bind-n-Seq; molecule type: RNA; matrix: in vitro; tested at: 365 nM; baseline: no-protein control; reading: higher = stronger binding
Target: RNA binding protein fox-1 homolog 2, RRM domain, GST-SBP tag (RBFOX2, Homo sapiens, UniProt O43251-10, residues 100-194)
Setting: natural RNA segment, single round, ends assumed
Constant ends, left off below: GGGAGUUCUACAGUCCGACGAUC … UGGAAUUCUCGGGUGCCAA
Construct (chain): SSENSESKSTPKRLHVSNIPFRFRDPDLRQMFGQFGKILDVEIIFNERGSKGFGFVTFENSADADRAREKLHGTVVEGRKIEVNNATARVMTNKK
Oligonucleotide | RBNS enrichment (R)
CCAGCACUGCUUGAGGAAAACAAGCAUUCACAACUUGUUUUUGGUUUUUAAAACCCAGUCCACAAAAUAACCAAUCCUGGACAUGAAGAUUCUUUCCCAAUUCACAUCUA | 0.631
CCUGCCUAUGAGUCCAUCAUCAAGGCAUUCCCAGAUUCCUGGUAGGGUGGCUUUUGGUUUUUGUUUCUUUCUUGUCUUGUCUUUUAUUGAAAGGAAAUCAAAAAUAGGCU | 2.35
GCCCAGCUCUGCAGGAGUCUGAGAAGGAAUUCUGGGGCUACCACCUUAGGAACGAAAUUGUGCCCAGCCAGAAAGAAUGCUGGCUCAUAAUAGAUUCUUACCCAAUGCCA | 1.32
CAAAGUUACCAUAUUUUGGUGUUUUUGUGUUUUCUCUUUAUAAGGCAAAAAGAUCUGUAUUUACACUCCUUCACCUAGGGAUGUGUUUGUUGCCCUCCUACCCAAUUGUC | 0.496
CCUGCAGUUCAGGUGAUACAUUUACCAGUGUUCUUGUUUGUGUGGUGCCAGGAAAUUGAUUUUGGAAAAAGUGAAAUAACAUUAAAGGUGAAUGUGAGGCUUCUACUUUU | 1.05
AUACCAUAUAGUAACAGCAGUAAUUCUGUCUCAGUGUGCUUGCAAGGAAACUUUUCUUAUAAAGAGAAAAAAAAGUUACAAUUUACUACUGCCCUAGUUAGGACAGACAU | 0.655
CCCGACAUUGAUGUUUCUUCCUGUUGCAAGGUGGGGCUUUAAACUUUCAAGGUACAAAAGUAUGUCUUUUAAAAUGGAAGUAACGUUUGUUUAGCUAGUGAAUGUGACAA | 0.552
GGUUCUACCCUUUCUGCCUUCUGUUUGGGACCCAGCUGGUGUUCUUUGGUUUGCUUUCUUCAGGCUCUAGGGCUGUGCUAUCCAAUACAGUAACCACAUGCGGCUGUUUA | 0.29
ACAUAAUGUCAUUUGAACCUCACAAUGUUCUUGGGAUGGAGUCAGUUGUUCAGGGUCCCCGUGUGUGUGAUAAGCAGUGCUGGCUGGCUGUCUUCAGAACUCUUGGAAAU | 0.501
UCUGCAAGGCCCUUGUGGGCACGAGAGUGCGGCCCUUGCUGCUGGAGAUCUGAGGUCACUGCUGUGAGCUGGGAGAACUGCUGUGUACCUCUUGCUGCCAGCACCCAACA | 0.897
UCCCUGCUUGGAGCUGCAGAAGGGUUGCCUUCUGUAGGUCGGAGGAAUGGAGGCUUACUAACCAGGUAAGCCUUCUAUGCAUCCACACCAAAAUCCUGCAGAAUGUAAGU | 0.655
UUGACUGCACUGUGGGUGAGUGUUCUGAGCUCCCAAUAUUGUACAGCAUCGUAAAUUAUCCAAGGAAGAUAUGGCAGGCCAAGCUGGUGCUGACCGCUGGUUUGAUUUUC | 5.64

Some of these lines once more (series 1):
Oligonucleotide | E-score
TGCTGCAA | 0.188
AATAATAT | 0.128
AAAGGGTG | -0.041
CGCAAAGC | 0.212
AACAACTG | -0.0822
